Results pooled from the literature.
Numbers after ± are the reported error.

CC(=O)O[C@@H]1CC[C@@]2(C)[C@@H](CC[C@]3(C)[C@@H]2C(=O)C=C2[C@@H]4[C@@H](C)[C@H](C)CC[C@]4(C)CC[C@]23C)[C@@]1(C)C(=O)NCCNC(=O)C1CCCCC1  IC50 (HBE; cell growth or viability, MTT; 48 h): 4.61 µM
Cc1cnc2c(ccc3c(C)c(C)cnc32)c1C.O=C([O-])Cc1ccccc1Nc1c(Cl)cccc1Cl.O=C([O-])Cc1ccccc1Nc1c(Cl)cccc1Cl.[Cu+2]  IC50 (HMLER breast cancer cells; cytotoxicity, MTT; 72 h): 0.133 ± 0.008 µM
COC(=O)[C@H]1[C@H]2C[C@H]3O[C@@]4(CCN3C[C@H]2C[C@@H](OC(=O)c2cc(OC)c(OC)c(OC)c2)[C@@H]1OC)C(=O)Nc1cc(OC)c(-c2ccc(C)cc2)cc14  IC50 (RS4-11; cell growth or viability, trypan blue; 72 h): 3.71 µM
N=C(N)NCCC[C@H](N)C(=O)N[C@H](CC(=O)N[C@@H](Cc1ccc(O)cc1)C(=O)O)c1cccc2ccccc12  IC50 (MCF-7 (no HER2 overexpression)): > 50 µM
N=C(N/N=C/c1cncnc1)N/N=C/c1cncnc1  IC50 (KP-4; cell growth or viability, crystal violet; 72 h): 119 µM
CC(C)c1cccc(C(C)C)c1N1CCN(c2c(C(C)C)cccc2C(C)C)C1=[Se].[Cl][Au]  IC50 (human ovarian cancer cells; cell viability, MTT; 72 h): 4.5 ± 1.2 µM
COc1c(C)c(O)c(C(=O)C=Cc2ccccc2)c(OC)c1C  IC50 (FaDu; cell growth or viability, SRB; 72 h): 24.8 µM
Cc1cc([C@H](C(=O)N2C[C@H](O)C[C@H]2C(=O)N[C@@H](CC(=O)N2CCC(N3CCC(C#Cc4ccc(C(=O)N[C@H]5C(C)(C)[C@H](Oc6ccc(C#N)c(Cl)c6)C5(C)C)cc4)CC3)CC2)c2ccc(-c3scnc3C)cc2)C(C)C)on1  IC50 (MDA-MB-453; cell growth or viability; 7 days): 0.235 µM
CCCCCC(=O)NCCNC(=O)[C@@]1(C)[C@H](O)CC[C@@]2(C)[C@H]1CC[C@]1(C)[C@@H]2C(=O)C=C2[C@@H]3[C@@H](C)[C@H](C)CC[C@]3(C)CC[C@]21C  IC50 (HBE; cell growth or viability, MTT; 48 h): 14.4 µM
N=C(N/N=C/c1cccs1)N/N=C/c1cccs1  IC50 (KP-4; cell growth or viability, crystal violet; 72 h): 10.8 µM
CCOP(=O)(OCC)C(Cc1cc(F)c(F)c(F)c1)Nc1ccccc1 (stereo not shown)  IC50 (U-118-MG; cell growth or viability, MTT; 48 h): 40.8 µM
C=C1C(=O)OC2CC3=C[C@@H](C/C(C)=C/C(OC(=O)Cc4cccc5ccccc45)[C@H]12)OC3=O (stereo partly shown)  IC50 (NES-SA; cell viability, MTT; 24 h): 0.34 µM
CC1=C2[O][Ru-]([Cl])[O+]=C2C=CN1CCCCCCN1C=CC2=[O+][Ru-]([Cl])[O]C2=C1C.Cc1ccc(C(C)C)cc1.Cc1ccc(C(C)C)cc1  IC50 (LCLC-103H; cell growth or viability, crystal violet; 96 h): > 20 µM
NC1=N[N+](=Cc2c3ccccc3cc3ccccc23)[Ga-3]23([S]1)([S]C(N)=N[N+]2=Cc1c2ccccc2cc2ccccc12)[S]C(N)=N[N+]3=Cc1c2ccccc2cc2ccccc12  IC50 (CCD-18Co; 72 h): 55.4 ± 2.1 µM
[Cl][Au].[Se]=c1n(C23CC4CC(CC(C4)C2)C3)ccn1C12CC3CC(CC(C3)C1)C2  IC50 (LoVo; cell growth or viability, MTT; 72 h): 3.5 µM
C=CC(OC(C)=O)c1ccccc1 (stereo not shown)  IC50 (HSC-4; MTT; 24 h): > 50 µM
CCC(C)C1OC(=O)C(C)(C)C(=O)C(Cc2ccccc2)OC(=O)C(C(C)C)OC(=O)C(NC(=O)c2cccc(O)c2)C(C)OC1=O (stereo not shown)  IC50 (HCT-8/T taxol-resistant; cell viability, CCK-8; 72 h): > 20 µM
Nc1ccc(/C=C/C(=O)N2CCc3c(oc4c(-c5ccc(F)cc5)cc(-c5ccc(C(=O)N6CCC(F)(F)CC6)cc5)cc34)C2)cn1  IC50 (U2OS; cell growth or viability, CCK-8; 72 h): ~2 µM
COc1ccc(C[C@H]2COC(=O)[C@@H]2Cc2ccc(OCC(=O)Nc3ccc(C(=O)NO)cc3)c(OC)c2)cc1OC  IC50 (Kasumi 1; cell growth or viability, CCK-8; 48 h): > 5 µM
C[n+]1c(/C=C/c2ccc(N(c3ccccc3)c3ccccc3)cc2)cc(/C=C2\Sc3ccccc3N2CCCN2CCCC2)c2ccccc21  IC50 (CA46; cell growth or viability; 36 h): 1.95 µM
CCN(C(=O)c1cc(F)ccc1Oc1nncnc1N1CCC2(C1)CN([C@H](CCCN(C)CCOC)C(C)C)C2)C(C)C  IC50 (RS4;11; cell growth, live-cell imaging spheroids; 8 days): 0.04 µM
CCOP(=O)(OCC)C(Cc1ccccc1F)Nc1ccc(Cl)cc1 (stereo not shown)  IC50 (U-118-MG; cell growth or viability, MTT; 48 h): 91.2 µM
Cc1cc(C#N)cc(C)c1Oc1cc(Nc2ccc(C#N)cn2)nc2cnccc12  IC50 (HuCC-A1; 48 h): > 127 µM
CC1CC(=O)NN=C1c1ccc(NC(=O)N2Cc3ccncc3C2)cc1 (stereo not shown)  IC50 (MDA-MB-453; cell growth or viability, ATP luminescence): 0.00065 µM
CC1=CC(C)=[O+][Pt-2]([NH3+])([NH3+])[O]1.CC1=CC(C)=[O+][Pt-2]([NH3+])([NH3+])[O]1.O=S(=O)([O-])[O-] (stereo not shown)  IC50 (U2OS; cell growth or viability, MTT): 24 µM
C=CC(=O)N1CCCC(n2c(=O)c3ncccc3n(Cc3ccc(Oc4ccccc4)cc3)c2=O)C1 (stereo not shown)  IC50 (solid tumour cell lines; cell growth, MTT): > 10 µM
COc1cccc(Cn2cc(COc3c(OC)ccc4cc5[n+](cc34)CCc3cc4c(cc3-5)OCO4)nn2)c1  IC50 (SW1990; cell growth or viability, MTT): 32.6 µM
C1=[N+]2CCCC[N+]3=Cc4ccc5[n]4[Au-]23[n]2c1ccc2-c1nc2ccccc2nc1-5.F[P-](F)(F)(F)(F)F  IC50 (breast cancer cell lines; NCI60 panel mean): 17 µM
COc1c(O)cc2oc3cc(O)c(CCC(C)C)c(O)c3c(=O)c2c1CCC(C)C  IC50 (SW480; cell growth or viability; 48 h): 14.5 µM
COc1ccc2cc3[n+](cc2c1OCc1cn(Cc2ccc(Cl)cc2)nn1)CCc1cc2c(cc1-3)OCO2  IC50 (SW1990; cell growth or viability, MTT): 37.9 µM
Cc1cn([C@@H]2O[C@H](CSSc3ccccn3)[C@@H](O)[C@H](F)[C@H]2O)c(=O)[nH]c1=O  IC50 (Molt4/C8; cell growth or viability): 84 µM
COC(=O)[C@H]1[C@H]2C[C@H]3O[C@@]4(CCN3C[C@H]2C[C@@H](OC(=O)c2cc(OC)c(OC)c(OC)c2)[C@@H]1OC)C(=O)Nc1cc(OC)c(Br)cc14  IC50 (RS4-11; cell growth or viability, trypan blue; 72 h): 10.2 µM
COc1ccc(C(C)(O)C(C)(C)C(=O)O)cc1 (stereo not shown)  IC50 (Fem-X; cell growth or viability; 72 h): 136 µM
C=C[CH2][Pd-]([Cl])[Cl].Cc1cc(C)c(-n2c[n+](-c3c(C)cc(C)cc3C)c3c2-c2cccc4cccc-3c24)c(C)c1  IC50 (2008 spheroids; cell viability, APH; 3D spheroids; 72 h): 24.3 ± 0.9 µM
N[C@@H](CCC(=O)N[C@@H](CS[Se]Cc1ccc(-c2cc(C(F)(F)F)nn2-c2ccc(S(N)(=O)=O)cc2)cc1)C(=O)NCC(=O)O)C(=O)O  IC50 (WM-115 melanoma cells; cell viability, MTS; 72 h, vertical stage): 3.1 ± 0.4 µM
CC1(C)CCN(Cc2ccc(C(=O)NC[C@]3(O)CCCN(c4cc(NCc5ccccc5)ncn4)C3)c(O)c2)CC1  IC50 (U2OS; m6A mRNA level, UPLC-MS/MS; 16 h): 9 µM
N#C/C(=C\c1cn(-c2ccccc2)nc1-c1ccccc1)c1nc2ccccc2[nH]1  IC50 (SW1990; cell growth or viability, ATP luminescence; 72 h): > 100 µM
CCCC(CCC)C(=O)[O][Pt]([NH2])([NH2])([Cl])([Cl])[O]C(=O)C(Cl)Cl  IC50 (BCPAP; cell growth or viability, MTT; 72 h): 0.01 µM
C=C1C(=O)C23CCC4C(C)(C)CCCC4(C)C2C(O)CC1C3 (single isomer, unassigned)  IC50 (HBE; cell growth or viability, MTT): 5.1 µM
Cc1cc(C)c(-n2c3c([n+](-c4c(C)cc(C)cc4C)[c]2[Cu-][Cl])-c2cccc4cccc-3c24)c(C)c1  IC50 (2008; cell growth, MTT; 72 h): 3 ± 2 µM
CCCCCC(=O)NCCNC(=O)[C@]1(C)[C@@H]2CC[C@]3(C)[C@H](C(=O)C=C4[C@@H]5[C@@H](C)[C@H](C)CC[C@]5(C)CC[C@]43C)[C@@]2(C)CC[C@H]1OC(C)=O  IC50 (HBE; cell growth or viability, MTT; 48 h): 12.7 µM
Cc1cnc(Nc2cc(C)c(C)c(C)c2)nc1Nc1ccc2oc(=O)[nH]c2c1  IC50 (human T cells; STAT5 phosphorylation, flow cytometry; together with: IL-2): 0.0178 µM
C=C1CC23CC4C5C6(C)CC(O)CC57C(C2C(O)C1C(O)C37)N4C6 (stereo not shown)  IC50 (HBE; cell growth or viability, MTT): 21.8 µM
Cc1cc(N)c2cc(NC(=O)C(=O)Nc3ccc4nc(C)cc(N)c4c3)ccc2n1  IC50 (CHO wild type; FGF2 binding to heparan sulfate, inhibitor, flow cytometry; on ice, together with: biotinylated FGF2 2.5 nM): 0.9 ± 0.08 µM
COc1ccc2cc3[n+](cc2c1OCc1cn(Cc2cccc(Br)c2)nn1)CCc1cc2c(cc1-3)OCO2  IC50 (SW1990; cell growth or viability, MTT): 50.5 µM
CC(=O)OC[C@]1(C)CCC[C@]2(CO)[C@@H]1CC[C@@]13C[C@@H](C[C@H](O)[C@H]12)[C@H](C)C3=O  IC50 (HBE; cell growth or viability, MTT): > 20 µM
N=C(N/N=C/c1cc(C(F)(F)F)cc(C(F)(F)F)c1)N/N=C/c1cc(C(F)(F)F)cc(C(F)(F)F)c1  IC50 (KP-4; cell growth or viability, crystal violet; 72 h): 134 µM
C[C@H]1[C@H](C)CC[C@]2(C)CC[C@]3(C)C(=CC(=O)[C@@H]4[C@@]5(C)CC[C@@H](O)[C@](C)(C(=O)NCCNC(=O)c6ccccc6)[C@@H]5CC[C@]43C)[C@H]12  IC50 (HBE; cell growth or viability, MTT; 48 h): 11 µM
CC(=O)Oc1ccccc1C(=O)[O][Pt]([NH2])([NH2])([Cl])([Cl])[O]C(=O)C(Cl)Cl  IC50 (BCPAP; cell growth or viability, MTT; 72 h): 0.06 µM
CCCCCCCCCCCCCCn1c(-c2cccnc2)nc(-c2ccc(C)cc2)c1-c1ccc(C)cc1  IC50 (L929; cell growth or viability, SRB): 347 µM
O=C(c1ccncc1)N1N=C2/C(=C/c3ccc(Cl)cc3)CCCC2C1c1ccc(Cl)cc1 (stereo not shown)  IC50 (human erythrocytes; membrane protection, HRBC membrane stabilization): 0.15 µM
CCCCCCC(=O)NCCNC(=O)[C@@]1(C)[C@H](O)CC[C@@]2(C)[C@H]1CC[C@]1(C)[C@@H]2C(=O)C=C2[C@@H]3[C@@H](C)[C@H](C)CC[C@]3(C)CC[C@]21C  IC50 (HBE; cell growth or viability, MTT; 48 h): 7.86 µM
CC(C)Cc1ccc(C(C)C(=O)[O][Pt]([NH2])([NH2])([Cl])([Cl])[O]C(=O)C(Cl)Cl)cc1 (stereo not shown)  IC50 (LoVo; cell growth or viability, MTT; 72 h): 0.285 µM
Cc1c(C)n(-c2c(C(C)C)cccc2C(C)C)c(=[Se])n1-c1c(C(C)C)cccc1C(C)C.[Cl][Au]  IC50 (LoVo; cell growth or viability, MTT; 72 h): 1 µM
CN1CCN(C(=O)N(CCCCCCC(=O)NO)c2ccc(-c3ccc4cnn(C)c4c3)cc2)CC1  IC50 (MJ; cell viability; 72 h): 0.0933 ± 0.0042 µM
N#C/C(=C\c1cn(-c2ccccc2)nc1-c1ccc(Br)cc1)c1nc2ccccc2[nH]1  IC50 (SW1990; cell growth or viability, ATP luminescence; 72 h): > 100 µM
COc1ccc(CN2C[C@H](O)[C@H](O)[C@@H]2CO)cc1  IC50 (U2OS; cell growth or viability, MTS; 72 h): 200 µM
Cc1ccc2nc(C)n(/N=C/c3ccc(C(=O)O)cc3)c(=O)c2c1  IC50 (LoVo; cytotoxicity, LDH release; 24 h, 50% viability reduction): 321 ± 13.2 µM

For quick reference, copied from above:
O=C(c1ccncc1)N1N=C2/C(=C/c3ccc(Cl)cc3)CCCC2C1c1ccc(Cl)cc1 (stereo not shown)  IC50 (human erythrocytes; membrane protection, HRBC membrane stabilization): 0.15 µM
CCCCCCC(=O)NCCNC(=O)[C@@]1(C)[C@H](O)CC[C@@]2(C)[C@H]1CC[C@]1(C)[C@@H]2C(=O)C=C2[C@@H]3[C@@H](C)[C@H](C)CC[C@]3(C)CC[C@]21C  IC50 (HBE; cell growth or viability, MTT; 48 h): 7.86 µM
CC(C)Cc1ccc(C(C)C(=O)[O][Pt]([NH2])([NH2])([Cl])([Cl])[O]C(=O)C(Cl)Cl)cc1 (stereo not shown)  IC50 (LoVo; cell growth or viability, MTT; 72 h): 0.285 µM
Cc1c(C)n(-c2c(C(C)C)cccc2C(C)C)c(=[Se])n1-c1c(C(C)C)cccc1C(C)C.[Cl][Au]  IC50 (LoVo; cell growth or viability, MTT; 72 h): 1 µM
CN1CCN(C(=O)N(CCCCCCC(=O)NO)c2ccc(-c3ccc4cnn(C)c4c3)cc2)CC1  IC50 (MJ; cell viability; 72 h): 0.0933 ± 0.0042 µM
N#C/C(=C\c1cn(-c2ccccc2)nc1-c1ccc(Br)cc1)c1nc2ccccc2[nH]1  IC50 (SW1990; cell growth or viability, ATP luminescence; 72 h): > 100 µM
COc1ccc(CN2C[C@H](O)[C@H](O)[C@@H]2CO)cc1  IC50 (U2OS; cell growth or viability, MTS; 72 h): 200 µM
